# Measurements of several laboratories.
# A part holds a random share of what one study measured.

# Set 1
# Target: Centromere-binding protein 1, full length, His-tagged (CBF1, Saccharomyces cerevisiae, UniProt P17106, residues 1-351)
# Sequence of UniProt P17106 (whole entry, looked up): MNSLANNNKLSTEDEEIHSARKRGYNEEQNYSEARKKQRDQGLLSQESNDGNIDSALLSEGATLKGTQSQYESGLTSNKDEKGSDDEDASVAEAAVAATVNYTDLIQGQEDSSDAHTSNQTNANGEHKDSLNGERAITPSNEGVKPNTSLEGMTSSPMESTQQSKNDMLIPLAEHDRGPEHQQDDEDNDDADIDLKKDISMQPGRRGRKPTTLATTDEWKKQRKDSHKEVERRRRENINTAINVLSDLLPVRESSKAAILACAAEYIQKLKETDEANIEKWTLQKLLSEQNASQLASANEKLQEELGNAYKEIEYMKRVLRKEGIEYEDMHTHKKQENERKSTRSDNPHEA
# Method: competition protein-binding microarray
# Form: double-stranded DNA, one strand shown
# Sample: in vitro
# Concentration: 2 µM
# Notes: whole 60-bp probe, lowest competitor level
# With: Pho4 competitor, 0.05 µM
# Direction: higher = stronger binding
# All sequences stand within: … GTCTTGATTCGCTTGACGCTGCTG
Oligonucleotide,fluorescence intensity [a.u.]
TTTTTGAGACGTACTGGCGTGCTAAATAGAGTGGTT,81.1
CATACCCAACCTTGTGCTGTGGGTGAAGATATTTGT,74.4
CGGGCATGTTGCAAACGCGTGTGAAAAAAAAAGAGA,116
TCTCTGTTGCAATCTCACGTGAAAAAGTGGATTCGC,676
TGCGCAACAACTTGTCCAGTGGGTGTATGTCTAGAA,56
AAAGCGGTAATTTGTGGTGTGGGTGCAGATATCTAT,85.4
CTTTCCCGATCTTGAACAGTGGGTGTAGCACATTTG,74.1

# Set 2
# Target: RNA binding protein fox-1 homolog 2, RRM domain, GST-SBP tag (RBFOX2, Homo sapiens, UniProt O43251-10, residues 100-194)
# Method: RNA Bind-n-Seq
# Form: RNA
# Sample: in vitro
# Concentration: 365 nM
# Notes: natural RNA segment, single round, ends assumed
# Relative to: no-protein control
# Direction: higher = stronger binding
# All sequences stand within: GGGAGUUCUACAGUCCGACGAUC … UGGAAUUCUCGGGUGCCAA
# Target sequence (chain): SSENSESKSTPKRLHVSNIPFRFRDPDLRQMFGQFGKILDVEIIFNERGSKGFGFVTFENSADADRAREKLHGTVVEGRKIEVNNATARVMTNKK
Oligonucleotide,RBNS enrichment (R)
GCCUUAGCAACUGCCCAGGUCCUGAGAAAUGGAGGGCUUGUUCAUGGGGUUAGAAACCUGCAAAGGCAGCCGGGCGUGGUGGCGCAUGCCUUUAAUCCCAGCACUCGGGA,0.677
UUGAGAAACCUGGACUAGAGCUUAGCACUCCCACUUGCAGCCUGGCAGGACCUGUGGAGCCAUUAACGGCGGGGGUCUUAGCGAGAACCACUUCAUUAGAGCACUUGCUG,0.802
CUGCAAAGCCCUGGAAGCCUGUGACUUAAAAGUCCGGAGAGGGUGGCAAUUGCUUCCUCGAAGACAUGGUGUCACCUUGAAUAGGAAUCUCAGGCAAUCGAGACAGAGAG,0.253
GUCCAGAUUACUUAGUUUAAAUAGCUACAUUUUCUUCUGUAUCUAAAACUUCGUUAGAAGAAAGUAAUAGUAUUAUUUGCAGAAAGCCAGUCGAUCACAGCCAUUACCAA,0.332
UUGGCCACUGAGCCCUGUCUCCCUUCUUCUUCUGCACAGGCUGGGGCUGCGGGCCAGUGCCUGCGCAUGUUUGUGCCUCUCCCCUCUCCUUGGGCAGGCCCUGGGUAGGA,1.92
GUCUUCUUGUGUGACUGUUUCUGUAUGAAGUAUAAAAAUUUGUGUGCCUUGAGCAAGUCUCAUUUUCUUUGUAAGCUGCCUCUUCCGCCAUUUCAUCUGAGGUUGCUGUC,1.03
CAGCUUUGUGGAGGGAGCCGCCGUGCUUCUGUCACCUGCUCCCUUUCUUGCGUCUCCCUGUGAUGGGCCCUUAGGCCUGGCUGGGCCCAUUACAUAUCCCUGUGGUGGCU,0.333

# Set 3
# Target: PABPC1L2, full length, GST fusion (mouse, UniProt A0ABA7IW68)
# Method: RNAcompete
# Form: RNA
# Sample: in vitro
# Concentration: 20 nM
# Notes: 7-mer, probes averaged, single round
# Relative to: mean of 7-mers
# Direction: higher = stronger binding
# Construct (chain): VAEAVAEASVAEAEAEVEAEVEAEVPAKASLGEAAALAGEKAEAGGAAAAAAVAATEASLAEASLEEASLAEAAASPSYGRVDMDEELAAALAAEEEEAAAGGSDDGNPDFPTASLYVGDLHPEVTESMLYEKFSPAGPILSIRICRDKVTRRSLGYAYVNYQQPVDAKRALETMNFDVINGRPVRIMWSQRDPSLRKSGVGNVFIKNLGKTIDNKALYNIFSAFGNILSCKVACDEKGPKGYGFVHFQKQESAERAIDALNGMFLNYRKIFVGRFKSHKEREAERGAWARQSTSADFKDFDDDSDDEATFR
Oligonucleotide,7-mer Z-score
ACGCUGG,-0.146
AUGGGCA,0.291
UAAUUUG,-0.151
AACUUCA,0.00436

# Further values, each from its own experiment
Substance,target,test,test system,setting,scale,measurement,result
"PhoQ, residues 284 288 289 292 302 303 TLMATV","PhoP, residues 12 14 15 18 19 AGCRL (Escherichia coli, UniProt P23836)","Sort-seq, refers to: YFP reporter",E. coli,"PhoQ-PhoP variant library, with: 10 µM Mg2+","relative to: high Mg2+ state, higher = stronger signaling",fold induction,4.29

# Excerpt of the above (set 1):
Oligonucleotide,fluorescence intensity [a.u.]
TGCGCAACAACTTGTCCAGTGGGTGTATGTCTAGAA,56
AAAGCGGTAATTTGTGGTGTGGGTGCAGATATCTAT,85.4
